Published values of several laboratories.
Compare with care: the assays were run in different laboratories. Values joined by “and” are separate records of one study, mostly repeats; a detail may differ. ± marks the error that the study gave.
Genome polyprotein NS2B-NS3 protease: Genome polyprotein, NS2B-NS3 protease (dengue virus type 2, UniProt P29990)

SMILES = CCCC[C@H](OC(C)=O)c1ccccc1C(=O)O; system = beagle dogs, both sexes, whole blood; conditions = intravenous, 0.5 mg/kg single dose; quantity = AUC(0-t); result = 0.361 ± 0.167 µg·h/mL
SMILES = CC[C@H](C)[C@H](NC(=O)[C@H](CCCCN)NC(=O)[C@H](CCC(=O)O)NC(=O)[C@H](CCCCN)NC(=O)[C@H](CC(C)C)NC(=O)[C@H](C)NC(=O)[C@H](C)NC(=O)[C@@H](NC(=O)[C@H](CCCCN)NC(=O)[C@@H]1CSCc2cccc(c2)CSC[C@H](NC(=O)[C@@H](NC(=O)[C@H](CCCCN)NC(C)=O)[C@@H](C)CC)C(=O)N[C@@H](C)C(=O)N[C@@H](CC(C)C)C(=O)N[C@@H](CCCCN)C(=O)N1)[C@@H](C)CC)C(=O)N[C@@H](C)C(=O)N[C@@H](C)C(=O)N[C@@H](CC(C)C)C(=O)N[C@@H](CCCCN)C(=O)N[C@@H](CCC(=O)O)C(=O)NCC(=O)N[C@@H](Cc1c[nH]c2ccccc12)C(N)=O; assay = circular dichroism thermal melting; system = PBS; conditions = pH 7.4, single peptide 50 µM total; quantity = melting temperature; result = 28 °C
SMILES = COc1cccc(OC)c1-c1cc(C(=O)NC2(C(=O)O)C3CC4CC(C3)CC2C4)nn1-c1ccc(C(=O)N(C)CCCN(C)C(=O)[C@H](CCCCNC(=O)[C@H](CC(C)C)NC(=O)C2OC2C(=O)O)NC(=O)CN2CCN(CC(=O)[O-])CCN(CC(=O)[O-])CCN(CC(=O)[O-])CC2)cc1C(C)C.[177Lu+3] (mixture of isomers); system = mouse, HT-29 xenograft, liver; conditions = 4 h post injection; quantity = tissue uptake; result = 0.94 %ID/g
SMILES = O=C(O)/C=C\c1cc2ccoc2cc1O[C@@H]1O[C@H](CO)[C@@H](O)[C@H](O)[C@H]1O; assay = post-procedure stability; system = rat plasma; conditions = 8 ng/mL, 3 h, room temperature; quantity = accuracy; result = 103%
SMILES = Cc1nc(N)nc2c1C(=O)N[C@@H](c1ccc(F)cc1-c1cccc(OCC[18F])n1)C2; assay = ex vivo biodistribution; system = C57BL/6 mice, bone; conditions = intravenous, 1 MBq, 30 min; quantity = SUV; result = 0.55 ± 0.04
SMILES = C=C[C@]1(C)C[C@@H](OC(=O)CSc2ccc(NC(=O)c3ccco3)cc2)[C@]2(C)[C@H](C)CC[C@]3(CCC(=O)[C@H]32)[C@@H](C)[C@@H]1O; system = Mycoplasma gallisepticum-infected chickens, plasma; conditions = intramuscular, 80 mg/kg, 24 h; quantity = plasma concentration; result = 0.0175 µg/mL and 0.014 µg/mL and 0.0125 µg/mL and 0.0142 µg/mL and 0.012 µg/mL and 0.0136 µg/mL and 0.0154 µg/mL and 0.0137 µg/mL
SMILES = CN1CCC[C@]1(C)/C=C/S(=O)(=O)NC(=O)Nc1c2c(cc3c1CCC3O)CCC2 (stereo partly shown); system = human, plasma; conditions = oral, 100 mg twice daily of parent drug, metabolite of dosed drug; scale = baseline: day 14 over day 1; quantity = AUC(0-tau) accumulation ratio; result = 1.7
SMILES = O=C(O)CCCOc1ccc([18F])cc1-c1cc(-c2ccccc2C(F)(F)F)n(-c2ccccc2)n1; assay = OLINDA/EXM from mouse data; system = human adults, muscle; quantity = absorbed dose; result = 16.2 µGy/MBq
SMILES = CCCCCCCCCCCCCCCOC(=O)/C=C/c1ccc(O)cc1; system = red blood cells; conditions = concentration not given; scale = baseline: Triton X-100; quantity = hemolysis; result = 0.45%
SMILES = O=C(Nc1cnccc1-c1ccc([18F])nc1)c1ccnc(NC(=O)C2CC2)c1; assay = ex vivo gamma counting; system = FVB/NJ mice, both sexes, left kidney; conditions = intravenous, 120 min; quantity = mean SUV; result = 0.324
SMILES = CCn1c(C)c(Cc2ccc(Cl)c(O[C@H](C)C(=O)O)c2)c2ccc(C(=O)N[C@@H](C)c3ccc(C(C)(C)C)cc3)cc21; assay = metabolic stability; system = mouse, liver microsomes; quantity = half-life; result = > 1 h
SMILES = NCc1ccc(CNC(=O)c2cc(-c3ccccc3)n(-c3ccccc3)n2)cc1; target or system = Genome polyprotein NS2B-NS3 protease; assay = reporter gene; system = HeLa; quantity = EC50; result = 17 µM
SMILES = CCOC(=O)CNC(=O)CN1CCN(CC(=O)NCC(=O)OCC)CCN(CC(=O)NCC(=O)OCC)CCN(CC(=O)NCC(=O)OCC)CC1.[177Lu+3]; system = Sprague-Dawley rat, bone; conditions = intravenous, dose not given, 2 h; quantity = biodistribution; result = 2.75 ± 1.14 % injected dose/organ
SMILES = C=CC(=O)Nc1cc(Nc2nccc(-c3cn(C)c4ccccc34)n2)c(OC)cc1N(C)CCNC; system = human, plasma; conditions = 270 ng/mL, 30 d, room temperature, high QC level; quantity = remaining compound; result = 19.9%
SMILES = COc1ccc2c(c1)O[B-]1(c3ccccc3)OC(=O)C(c3ccccc3)=N[N+]1=C2 (stereo not shown); system = toluene; quantity = absorption maximum; result = 427 nm
SMILES = CCCCN1C(=O)c2cccc3c(NCCCCCN4CCOCC4)ccc(c23)C1=O; system = acetonitrile; quantity = absorption maximum; result = 432 nm
SMILES = CC(C)(O)c1ncc([S@](N)(=O)=NC(=O)Nc2c3c(cc4c2CCC4)CCC3)s1; assay = item: general, administration-site conditions; system = healthy human; conditions = oral, dose not given, all active doses pooled; quantity = subjects with TEAEs; result = 17%
SMILES = CN1CCC[C@]1(C)/C=C/S(=O)(=O)NC(=O)Nc1c2c(cc3c1CCC3)CC=C2; system = human, plasma; conditions = oral, 12.5 mg twice daily of parent drug, day 14, metabolite of dosed drug; quantity = AUC(0-tau); result = 72.1 µg·h/mL
SMILES = Cc1ncsc1-c1ccc(C(C)NC(=O)C2CC(O)CN2C(=O)C(NC(=O)CCCCCCCCCCN2CCCC(Nc3ncc(Cl)c(Nc4ccccc4S(=O)(=O)C(C)C)n3)C2)C(C)(C)C)cc1 (stereo not shown); target or system = 22Rv1; assay = RNA-seq, item: MTFR2 mRNA; conditions = concentration not given; scale = baseline: DMSO; quantity = log2 fold change; result = -2.68
SMILES = [2H]C1([2H])CC[C@@H](C[C@@H](C#N)NC(=O)[C@@H]2[C@@H]3[C@H](CN2C(=O)[C@@H](NC(=O)C(F)F)C(C)(C)C)C3(C)C)C(=O)N1; system = human liver microsomes; conditions = scaled to liver; quantity = intrinsic clearance; result = 0.918 L/h/kg
SMILES = CCCCN1C(=O)c2cccc3c(NCCCCCCCCN4CCOCC4)ccc(c23)C1=O; system = water; conditions = pH 6.0; quantity = absorption maximum; result = 453 nm
SMILES = NC(=O)c1cccc(NC(=O)c2cc(-c3ccccc3)n(-c3ccccc3)n2)c1; target or system = Genome polyprotein NS2B-NS3 protease; assay = reporter gene; system = HeLa; quantity = EC50; result = 9.9 µM
SMILES = Cc1nc(N)nc2c1C(=O)N[C@@H](c1ccc(F)cc1-c1cccc(O[11CH3])n1)C2; assay = ex vivo biodistribution; system = healthy mice, lungs; conditions = 60 min post-injection, baseline, vehicle pre-treatment; quantity = SUV; result = 2.2 ± 0.4
SMILES = CCCN(C)c1cc(C(F)(F)F)nc(SCCC(=O)NCc2ccco2)n1; system = Wistar rat, urine and plasma; conditions = intraperitoneal, 25 mg/kg; quantity = renal clearance; result = 0.0097 mL/min
SMILES = COC1CN([C@H]2CC[C@H]([C@@]3(C)Oc4c(Cl)cc(C(=O)NCc5c(SC)cc(C)[nH]c5=O)c(C)c4O3)CC2)C1; assay = RNA-seq, item: CCR3; system = human, whole blood; conditions = dose not given, 24 h; scale = baseline: pretreatment baseline; quantity = log2 fold change; result = 1.77
SMILES = CN(C(=O)C(C)(C)c1cc(C(F)(F)F)cc(C(F)(F)F)c1)c1cnc(N2C[C@H]3COC(O)CN3C[C@H]2CO)cc1-c1ccc(F)cc1CO (stereo partly shown); system = human male, plasma; conditions = oral, 120 mg, AUC(0-inf) based; quantity = share of total plasma radioactivity; result = ~5.3%
SMILES = CN(O)C(=O)CCC(=O)NCCCN(CCCCN(CCCNC(=O)CCC(=O)N(C)O)C(=O)CCC(=O)N(C)O)C(=O)CCC(=O)N(C)O.[89Zr]; system = human plasma; conditions = 7 d, 37 °C; quantity = intact complex; result = 99.2 ± 0.8%
SMILES = O=C(Nc1cnccc1-c1ccc([18F])cc1)c1ccnc(NC(=O)C2CC2)c1; assay = PET imaging; system = FVB/NJ mice, both sexes, brain; conditions = intravenous, 10 min post-injection, P-gp inhibited, with: tariquidar 15 mg/kg iv, 2 h before; quantity = median SUV; result = 0.59
SMILES = CCCCN1C(=O)c2cccc3c(NCCCCN4CCOCC4)ccc(c23)C1=O; system = chloroform; quantity = fluorescence lifetime; result = 9 ns
SMILES = CC(C)[C@H](NC(=O)[C@H](Cc1c[nH]c2ccccc12)NC(=O)[C@H](CCCNC(=N)N)NC(=O)[C@H](CCCNC(=N)N)NC(=O)[C@@H](NC(=O)[C@@H](NC(=O)[C@H](CCCNC(=N)N)NC(=O)[C@@H](NC(=O)[C@@H](NC(=O)[C@H](CCCNC(=N)N)NC(=O)[C@H](CCCNC(=N)N)NC(=O)[C@@H](NC(=O)[C@H](Cc1c[nH]c2ccccc12)NC(=O)[C@H](CCCNC(=N)N)NC(=O)[C@H](CCCNC(=N)N)NC(=O)[C@@H](NC(=O)[C@H](CCCNC(=N)N)NC(=O)[C@H](CCCNC(=N)N)NC(=O)[C@@H](NC(=O)[C@H](Cc1c[nH]c2ccccc12)NC(=O)[C@H](CCCNC(=N)N)NC(=O)[C@@H](N)CCCNC(=N)N)C(C)C)C(C)C)C(C)C)C(C)C)C(C)C)C(C)C)C(C)C)C(=O)N[C@@H](CCCNC(=N)N)C(=O)N[C@@H](CCCNC(=N)N)C(=O)O; system = CD-1 mice; conditions = intravenous, 15 mg/kg, 6-24 h; quantity = urinary glucose; result = 71 mg/dL
SMILES = C=C(NC(=O)c1csc(-c2nc3c(cc2O)-c2nc(cs2)C(=O)NC(C(C)O)C(=O)NC(=C(C)OC)c2nc(cs2)C(=O)NC2c4nc(cs4)C(=O)NC(COC(=O)c4c5c6c(cccc6n4O)COC(=O)C(OC4CC(C)(O)C(N(C)C)C(C)O4)C2OC5)c2nc-3cs2)n1)C(N)=O (stereo not shown); system = ICR mice, Streptococcus pneumoniae ATCC 49169 infected, immunocompromised, blood; conditions = intravenous, 16 mg/kg once daily; quantity = AUC(0-t); result = 1260 nM·h

A few entries again:
SMILES = C=C(NC(=O)c1csc(-c2nc3c(cc2O)-c2nc(cs2)C(=O)NC(C(C)O)C(=O)NC(=C(C)OC)c2nc(cs2)C(=O)NC2c4nc(cs4)C(=O)NC(COC(=O)c4c5c6c(cccc6n4O)COC(=O)C(OC4CC(C)(O)C(N(C)C)C(C)O4)C2OC5)c2nc-3cs2)n1)C(N)=O (stereo not shown); system = ICR mice, Streptococcus pneumoniae ATCC 49169 infected, immunocompromised, blood; conditions = intravenous, 16 mg/kg once daily; quantity = AUC(0-t); result = 1260 nM·h
SMILES = NC(=O)c1cccc(NC(=O)c2cc(-c3ccccc3)n(-c3ccccc3)n2)c1; target or system = Genome polyprotein NS2B-NS3 protease; assay = reporter gene; system = HeLa; quantity = EC50; result = 9.9 µM
SMILES = CCn1c(C)c(Cc2ccc(Cl)c(O[C@H](C)C(=O)O)c2)c2ccc(C(=O)N[C@@H](C)c3ccc(C(C)(C)C)cc3)cc21; assay = metabolic stability; system = mouse, liver microsomes; quantity = half-life; result = > 1 h
SMILES = COc1cccc(OC)c1-c1cc(C(=O)NC2(C(=O)O)C3CC4CC(C3)CC2C4)nn1-c1ccc(C(=O)N(C)CCCN(C)C(=O)[C@H](CCCCNC(=O)[C@H](CC(C)C)NC(=O)C2OC2C(=O)O)NC(=O)CN2CCN(CC(=O)[O-])CCN(CC(=O)[O-])CCN(CC(=O)[O-])CC2)cc1C(C)C.[177Lu+3] (mixture of isomers); system = mouse, HT-29 xenograft, liver; conditions = 4 h post injection; quantity = tissue uptake; result = 0.94 %ID/g
SMILES = CCCCN1C(=O)c2cccc3c(NCCCCCN4CCOCC4)ccc(c23)C1=O; system = acetonitrile; quantity = absorption maximum; result = 432 nm
